{"data": "Results collected from several papers", "note": "Each numbered part is a random draw from the data of one study; scales do not carry over between parts."}
{"data": "Set 1", "target": "RING finger protein unkempt homolog, zinc fingers 1-6, GST-SBP tag (UNK, Homo sapiens, UniProt Q9C0B0, residues 30-357)", "method": "RNA Bind-n-Seq", "molecule type": "RNA", "matrix": "in vitro", "concentration": "not given", "setting": "RNA with constant flanks, human-mouse chimeric sites, ends assumed", "reference": "input RNA pool", "reading": "higher = stronger binding", "all sequences stand within": "GGGAGUUCUACAGUCCGACGAUC … CAACAGAGGAUUGAGCAUCA", "sequence of UniProt Q9C0B0 (30-357, looked up)": "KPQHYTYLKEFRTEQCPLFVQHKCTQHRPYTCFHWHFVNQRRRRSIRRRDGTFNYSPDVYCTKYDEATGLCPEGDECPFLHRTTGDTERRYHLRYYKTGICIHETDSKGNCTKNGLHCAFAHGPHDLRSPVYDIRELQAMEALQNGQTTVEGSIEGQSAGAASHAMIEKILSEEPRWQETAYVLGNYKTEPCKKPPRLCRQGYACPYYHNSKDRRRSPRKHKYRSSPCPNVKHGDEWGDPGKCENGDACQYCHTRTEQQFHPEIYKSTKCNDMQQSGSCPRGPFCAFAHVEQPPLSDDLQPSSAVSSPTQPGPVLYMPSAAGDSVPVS"}
{"Oligonucleotide": "UGUAGUUUCUUGAUUUAUCAUUUUUCUCUUUUCUUUCUUUCCUUUAGGAAAAGCCUAAAGAUUAGACUGUAAGAAAAACAGAAGCCAUGUUUCGAAGACCUGUGUUACAGGUAUUUCGUC", "bound/input enrichment": "0.131 ratio"}
{"Oligonucleotide": "CAUGUAUCUGCAGUACUUGAUGUGGACUACUCUCCCACUGGGAAGGAAUUUGUGUCUGCCAGCUUUGAUAAGUCUAUUAGAAUCUUUCCUGUAGACAAGAGCCGAAGCAGGGAAGUGUAU", "bound/input enrichment": "0.612 ratio"}
{"Oligonucleotide": "ACAGUUAUACACUGUUGUUUCAUUUUCAUAUAUUCUUGUAGUGUCUGCUUGCCUGUGUCUUUUAGUAAAAUAAAAUAAGCCUUUGAAAAUAUUUUAGCAUGGUAUUUAACAUUUUCUAAA", "bound/input enrichment": "2.74 ratio"}
{"Oligonucleotide": "CUCAGAGAUGUGGCAUAUCAGUAUGUGAAAAAGGGGUCUCGUAUAUUUUUGGAAGGGAAAGUGGACUAUGGCGAGUACAUGGAUAAAAACAAUGUGAGGCGGCAAGCAACAACAAUCAUA", "bound/input enrichment": "0.38 ratio"}
{"Oligonucleotide": "AGAGAAAUGAGAAAGAAUCUUACACAAGAAGAGAUGCAAAGAAUGUCUACUAGAGUCCUUUUGGCGACUCUUUCCAUUCCUAUUACUCCUGAGCGAACGGAUAUUGCUCGACUUUUGGAU", "bound/input enrichment": "0.154 ratio"}
{"Oligonucleotide": "UGUGCAUAUGAUGCUUGGAGAUGGUUUUGCAAAAGCAGAAAUCGCUGCAAGGUAAUCACAAUAGAUAAAAGUGGUAUUUUAAACCUUUGAAAUAAAUGGAUGUAACUGUACCUUGGUACA", "bound/input enrichment": "0.745 ratio"}
{"data": "Set 2", "target": "Histone acetyltransferase KAT6A, winged helix 1, GST fusion (KAT6A, Homo sapiens, UniProt Q92794, residues 1-85)", "method": "protein binding microarray", "molecule type": "double-stranded DNA, one strand shown", "matrix": "in vitro", "concentration": "not given", "setting": "8-mer, flanks averaged, mean of 2 arrays, mostly near background", "reference": "not given", "reading": "higher = stronger binding", "Construct (chain)": "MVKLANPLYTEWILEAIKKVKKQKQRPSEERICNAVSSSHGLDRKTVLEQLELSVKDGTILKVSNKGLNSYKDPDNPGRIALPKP"}
{"Oligonucleotide": "GGAAAGAA", "E-score": -0.115}
{"Oligonucleotide": "CCCCCGAC", "E-score": 0.229}
{"Oligonucleotide": "ACAATCAG", "E-score": -0.111}
{"Oligonucleotide": "AATGCATG", "E-score": -0.188}
{"data": "Set 3", "target": "Sal-like protein 4, full length isoform B (SALL4, Homo sapiens, UniProt Q9UJQ4-2, residues 1-616)", "method": "universal PBM", "molecule type": "double-stranded DNA, one strand shown", "matrix": "in vitro", "concentration": "not given", "setting": "8-mer, flanks averaged, mean of replicates", "reading": "higher = stronger binding"}
{"Oligonucleotide": "CCTGCAAG", "E-score": -0.257}
{"Oligonucleotide": "CACCGGCC", "E-score": -0.426}
{"Oligonucleotide": "GACTTGCA", "E-score": 0.103}
{"Oligonucleotide": "CGTTATTA", "E-score": 0.382}
{"Oligonucleotide": "CCTTCGAG", "E-score": -0.241}
{"Oligonucleotide": "TATACAAA", "E-score": 0.37}
{"Oligonucleotide": "CTTTAGTA", "E-score": 0.0609}
{"data": "Mixed results"}
{"Substance": "PhoQ, residues 284 288 289 292 302 303 SCKMEA", "target": "PhoP, residues 12 14 15 18 19 STHWV (Escherichia coli, UniProt P23836)", "assay": "Sort-seq, item: YFP reporter", "system": "E. coli", "conditions": "PhoQ-PhoP variant library, with: 10 µM Mg2+", "how to read": "reference: high Mg2+ state, higher = stronger signaling", "endpoint": "fold induction", "result": 12.4}
{"note": "Some of these lines once more (set 3):"}
{"Oligonucleotide": "CCTGCAAG", "E-score": -0.257}
